# Experimental data gathered from unrelated publications.
# Parts stem from different laboratories: compare values within a part only. ± marks the error that the study gave.
# UniProt P34913, sequence (whole entry, looked up): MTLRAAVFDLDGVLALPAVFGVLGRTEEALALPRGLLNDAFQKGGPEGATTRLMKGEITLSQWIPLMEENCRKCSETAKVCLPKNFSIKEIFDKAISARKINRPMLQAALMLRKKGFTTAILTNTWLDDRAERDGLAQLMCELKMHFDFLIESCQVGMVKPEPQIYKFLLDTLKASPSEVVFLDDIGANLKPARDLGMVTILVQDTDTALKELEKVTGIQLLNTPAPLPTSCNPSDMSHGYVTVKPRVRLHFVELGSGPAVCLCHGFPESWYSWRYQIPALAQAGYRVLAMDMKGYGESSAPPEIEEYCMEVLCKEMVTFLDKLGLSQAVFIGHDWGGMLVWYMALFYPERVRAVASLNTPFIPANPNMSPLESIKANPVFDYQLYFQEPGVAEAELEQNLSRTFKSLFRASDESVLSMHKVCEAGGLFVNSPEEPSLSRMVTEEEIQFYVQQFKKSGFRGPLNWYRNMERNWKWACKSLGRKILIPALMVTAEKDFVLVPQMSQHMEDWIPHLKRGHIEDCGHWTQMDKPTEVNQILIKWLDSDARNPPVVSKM
# UniProt Q9H930, sequence (whole entry, unmodified, looked up): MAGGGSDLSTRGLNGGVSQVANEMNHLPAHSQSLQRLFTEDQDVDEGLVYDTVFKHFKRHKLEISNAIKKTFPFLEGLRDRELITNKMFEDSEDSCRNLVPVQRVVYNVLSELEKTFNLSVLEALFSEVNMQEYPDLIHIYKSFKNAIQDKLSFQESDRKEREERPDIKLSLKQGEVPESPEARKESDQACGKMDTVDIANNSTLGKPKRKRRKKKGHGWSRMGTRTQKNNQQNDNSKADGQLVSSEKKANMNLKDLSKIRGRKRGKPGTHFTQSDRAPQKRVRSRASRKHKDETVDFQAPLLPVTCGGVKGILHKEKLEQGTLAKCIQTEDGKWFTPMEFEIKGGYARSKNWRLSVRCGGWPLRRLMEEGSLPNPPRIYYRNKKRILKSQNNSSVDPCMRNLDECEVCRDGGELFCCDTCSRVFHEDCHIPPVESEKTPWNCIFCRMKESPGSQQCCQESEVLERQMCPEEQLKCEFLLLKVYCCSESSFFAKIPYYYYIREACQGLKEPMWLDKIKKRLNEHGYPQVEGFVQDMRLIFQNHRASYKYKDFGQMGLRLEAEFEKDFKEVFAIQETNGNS

# Series 1
# Structure (SMILES): Cc1cc(OCc2nnc(SC3CCCC3)n2-c2cccnc2)ccc1-c1ccc(S(C)(=O)=O)cc1
cell line,GI50
HCC 2998,1030 nM
MOLT-4,591 nM
Hs-578T,2120 nM
SK-MEL-5,36.7 nM

# Other studies, line by line
Compound,target or system,assay,test system,conditions,quantity,value
O=C(Nc1ccc(F)cc1)NC1CCN(c2c(NS(=O)(=O)Cc3ccccc3)c(=O)c2=O)CC1,"EPHX2 (Homo sapiens, UniProt P34913)",,,,IC50,129 ± 15.7 nM
N#Cc1ccc(-c2csc(CNC(=O)C34CC(CN(C(=O)COCCF)C3)C4)n2)cc1,,,"Sprague Dawley rats male, plasma","oral, 3 mg/kg",AUC,14 µM·h
C#Cc1cccc(Nc2ncnc3cc(OCCOC)c(OCCOC)cc23)c1,PC-3,MTT,,"1000 µg/mL, RPMI medium with 2% serum",viability,3.64%
CC[C@@H]1C(=O)N(C)c2cnc(Nc3ccc(C(=O)NC4CCN(C)CC4)cc3OC)nc2N1C1CCCC1,"SP140L, PHD-bromodomain (Homo sapiens, UniProt Q9H930)","thermal stabilisation, thermal shift",,10 µM,ΔTm,-0.28 ± 0.26 °C

# A few entries again (series 1):
cell line,GI50
MOLT-4,591 nM
